Measured values from different studies.
A part holds a random share of what one study measured.
Chain of UniProt P36894 (whole entry, looked up): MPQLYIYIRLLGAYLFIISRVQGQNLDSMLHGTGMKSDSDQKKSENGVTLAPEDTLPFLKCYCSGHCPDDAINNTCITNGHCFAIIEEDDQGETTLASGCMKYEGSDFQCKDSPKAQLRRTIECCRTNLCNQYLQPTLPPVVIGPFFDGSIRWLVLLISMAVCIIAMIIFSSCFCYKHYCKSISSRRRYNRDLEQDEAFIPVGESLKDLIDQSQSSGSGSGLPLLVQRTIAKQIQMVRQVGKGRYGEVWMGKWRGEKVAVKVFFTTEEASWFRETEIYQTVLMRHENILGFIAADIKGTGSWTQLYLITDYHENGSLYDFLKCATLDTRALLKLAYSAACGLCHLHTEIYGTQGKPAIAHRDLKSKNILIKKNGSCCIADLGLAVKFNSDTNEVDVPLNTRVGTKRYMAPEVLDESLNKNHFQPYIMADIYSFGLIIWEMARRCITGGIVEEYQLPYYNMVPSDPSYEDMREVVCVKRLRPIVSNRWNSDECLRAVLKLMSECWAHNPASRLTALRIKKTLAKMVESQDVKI
Chain of UniProt Q9UKE5 (whole entry, looked up): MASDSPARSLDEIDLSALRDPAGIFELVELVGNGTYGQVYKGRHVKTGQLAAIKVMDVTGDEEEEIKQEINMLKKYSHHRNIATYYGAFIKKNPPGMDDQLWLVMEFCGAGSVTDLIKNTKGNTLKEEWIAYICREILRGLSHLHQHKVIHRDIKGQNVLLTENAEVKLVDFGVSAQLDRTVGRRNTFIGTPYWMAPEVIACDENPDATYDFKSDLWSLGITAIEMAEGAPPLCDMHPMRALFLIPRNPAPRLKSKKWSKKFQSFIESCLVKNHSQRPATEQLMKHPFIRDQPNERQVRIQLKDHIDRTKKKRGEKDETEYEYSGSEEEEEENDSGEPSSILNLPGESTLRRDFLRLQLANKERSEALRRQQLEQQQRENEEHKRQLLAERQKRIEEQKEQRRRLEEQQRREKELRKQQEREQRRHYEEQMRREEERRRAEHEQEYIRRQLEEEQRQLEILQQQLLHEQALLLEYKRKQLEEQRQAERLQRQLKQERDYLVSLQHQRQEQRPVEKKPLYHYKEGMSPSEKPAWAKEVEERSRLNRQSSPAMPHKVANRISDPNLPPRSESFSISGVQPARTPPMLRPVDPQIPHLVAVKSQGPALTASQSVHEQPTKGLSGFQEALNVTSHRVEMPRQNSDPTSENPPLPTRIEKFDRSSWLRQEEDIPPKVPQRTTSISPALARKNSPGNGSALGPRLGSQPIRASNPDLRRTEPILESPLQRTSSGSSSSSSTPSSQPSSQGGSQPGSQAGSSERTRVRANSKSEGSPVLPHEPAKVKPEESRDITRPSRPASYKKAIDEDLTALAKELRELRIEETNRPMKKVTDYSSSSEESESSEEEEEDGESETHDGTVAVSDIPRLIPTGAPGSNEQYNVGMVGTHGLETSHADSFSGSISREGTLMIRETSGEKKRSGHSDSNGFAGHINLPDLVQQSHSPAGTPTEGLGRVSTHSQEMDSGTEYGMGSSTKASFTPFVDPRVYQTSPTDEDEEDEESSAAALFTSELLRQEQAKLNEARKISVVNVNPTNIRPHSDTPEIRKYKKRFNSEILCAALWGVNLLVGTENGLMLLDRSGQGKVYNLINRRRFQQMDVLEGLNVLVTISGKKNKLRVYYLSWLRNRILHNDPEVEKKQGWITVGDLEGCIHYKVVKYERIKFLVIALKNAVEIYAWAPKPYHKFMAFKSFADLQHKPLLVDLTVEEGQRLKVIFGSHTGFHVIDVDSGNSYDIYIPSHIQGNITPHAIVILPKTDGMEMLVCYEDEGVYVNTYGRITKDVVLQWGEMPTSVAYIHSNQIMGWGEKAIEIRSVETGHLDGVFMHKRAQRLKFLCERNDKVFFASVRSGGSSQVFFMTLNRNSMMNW
Chain of UniProt Q86YV6 (whole entry, looked up): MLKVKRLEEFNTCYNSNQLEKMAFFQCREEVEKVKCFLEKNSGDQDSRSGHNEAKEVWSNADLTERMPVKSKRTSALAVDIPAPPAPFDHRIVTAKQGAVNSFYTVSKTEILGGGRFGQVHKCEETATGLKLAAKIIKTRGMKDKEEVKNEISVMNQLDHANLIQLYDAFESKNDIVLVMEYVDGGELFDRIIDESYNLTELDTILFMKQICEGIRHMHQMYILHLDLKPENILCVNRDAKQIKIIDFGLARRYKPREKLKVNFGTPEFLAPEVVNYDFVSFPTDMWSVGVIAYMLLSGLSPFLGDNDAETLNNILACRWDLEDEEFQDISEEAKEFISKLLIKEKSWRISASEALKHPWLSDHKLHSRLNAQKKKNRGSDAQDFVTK
Chain of UniProt P29597 (whole entry, looked up): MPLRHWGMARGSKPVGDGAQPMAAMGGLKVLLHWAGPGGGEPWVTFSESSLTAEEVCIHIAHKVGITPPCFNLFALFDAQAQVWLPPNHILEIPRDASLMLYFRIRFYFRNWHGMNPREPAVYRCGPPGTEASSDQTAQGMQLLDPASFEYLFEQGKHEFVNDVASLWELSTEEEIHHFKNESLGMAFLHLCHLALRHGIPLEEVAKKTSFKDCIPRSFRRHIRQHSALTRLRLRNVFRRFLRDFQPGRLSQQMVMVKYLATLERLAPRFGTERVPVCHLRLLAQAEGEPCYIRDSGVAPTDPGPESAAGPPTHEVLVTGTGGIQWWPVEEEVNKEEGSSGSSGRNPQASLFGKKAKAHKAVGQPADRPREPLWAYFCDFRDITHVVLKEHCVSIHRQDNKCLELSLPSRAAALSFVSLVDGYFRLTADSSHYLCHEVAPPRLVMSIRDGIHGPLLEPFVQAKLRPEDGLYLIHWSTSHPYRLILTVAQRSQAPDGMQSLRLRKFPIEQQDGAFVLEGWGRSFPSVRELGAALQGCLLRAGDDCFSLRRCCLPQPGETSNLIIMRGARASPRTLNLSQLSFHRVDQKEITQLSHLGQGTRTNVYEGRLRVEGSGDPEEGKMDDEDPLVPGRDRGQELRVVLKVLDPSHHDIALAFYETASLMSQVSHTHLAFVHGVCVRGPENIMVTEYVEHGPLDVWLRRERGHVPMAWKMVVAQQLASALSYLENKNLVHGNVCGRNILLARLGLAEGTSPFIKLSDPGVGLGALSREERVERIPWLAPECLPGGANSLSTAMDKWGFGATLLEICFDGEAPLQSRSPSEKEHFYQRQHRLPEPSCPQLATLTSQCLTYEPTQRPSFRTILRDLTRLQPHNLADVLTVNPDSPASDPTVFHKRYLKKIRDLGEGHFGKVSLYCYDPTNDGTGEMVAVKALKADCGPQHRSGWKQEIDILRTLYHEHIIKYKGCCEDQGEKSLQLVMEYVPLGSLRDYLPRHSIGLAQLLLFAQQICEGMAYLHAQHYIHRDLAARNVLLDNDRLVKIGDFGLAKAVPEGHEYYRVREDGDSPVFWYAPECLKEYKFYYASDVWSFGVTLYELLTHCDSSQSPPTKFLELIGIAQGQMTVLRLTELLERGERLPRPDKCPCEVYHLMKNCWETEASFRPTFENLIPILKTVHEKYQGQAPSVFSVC

Series 1 — action: inhibitor; tested at: 1 µM; quantity: inhibition
Structure (SMILES): CO[C@@H]1[C@H](N(C)C(=O)c2ccccc2)C[C@H]2O[C@]1(C)n1c3ccccc3c3c4c(c5c6ccccc6n2c5c31)C(=O)NC4
CAMK1 (Homo sapiens, UniProt Q14012); enzyme activity: 39%
MYLK4 (Homo sapiens, UniProt Q86YV6); enzyme activity: 19%
MAP3K14 (Homo sapiens, UniProt Q99558); enzyme activity: 48%
LATS2 (Homo sapiens, UniProt Q9NRM7); enzyme activity: 68%
MATK (Homo sapiens, UniProt P42679); enzyme activity: 63%
Tyrosine-protein kinase ABL1, phosphorylated (ABL1, Homo sapiens, UniProt P00519, T315I); enzyme activity: 46%
MAP4K5 (Homo sapiens, UniProt Q9Y4K4); enzyme activity: 27%
TNIK (Homo sapiens, UniProt Q9UKE5); enzyme activity: 18%
MAP3K19 (Homo sapiens, UniProt Q56UN5); enzyme activity: 98%
BMPR1A (Homo sapiens, UniProt P36894); enzyme activity: 6%
EGFR (Homo sapiens, UniProt P00533, del752-759); enzyme activity: 6%
PNCK (Homo sapiens, UniProt Q6P2M8); cell-free assay: 24%
PIK3C2B (Homo sapiens, UniProt O00750); enzyme activity: 27%
Non-receptor tyrosine-protein kinase TYK2, JH2 pseudokinase domain (TYK2, Homo sapiens, UniProt P29597): 95%

Series 2 — effect on: enzyme activity; action: inhibitor; tested at: 0.5 µM; relative to: control; quantity: remaining activity
Target: Serine/threonine-protein kinase 25 (STK25, Homo sapiens, UniProt O00506)
Chain of UniProt O00506 (whole entry, looked up): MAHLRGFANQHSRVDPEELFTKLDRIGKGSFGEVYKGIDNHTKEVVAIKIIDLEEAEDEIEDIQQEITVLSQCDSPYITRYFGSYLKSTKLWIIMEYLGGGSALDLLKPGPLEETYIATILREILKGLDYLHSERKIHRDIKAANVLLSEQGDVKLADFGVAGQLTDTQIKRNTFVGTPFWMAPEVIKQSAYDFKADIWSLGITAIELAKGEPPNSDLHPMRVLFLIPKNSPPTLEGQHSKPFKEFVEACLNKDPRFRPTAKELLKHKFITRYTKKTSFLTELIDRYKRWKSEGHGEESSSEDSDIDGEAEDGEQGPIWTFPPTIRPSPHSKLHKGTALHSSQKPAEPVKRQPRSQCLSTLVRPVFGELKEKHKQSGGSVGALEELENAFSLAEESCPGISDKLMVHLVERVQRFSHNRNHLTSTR
CCCCc1c(-c2ccc(O)cc2)[nH]c2nccnc12: 91.4%
CC(C)N(CCC(=O)c1ccc2ccccc2c1)Cc1ccccc1: 94%
O=C1NC(=O)/C(=C/c2ccc3c(c2)OC(F)(F)O3)S1: 95.7%
O=C(c1ccccc1)c1ccc(N2CCOCC2)cc1O: 100%
FC(F)(F)c1ccc(/C=C/c2nc(COc3ccc(CCCCn4ccnn4)cc3)co2)cc1: 91.8%
CC(C)n1cnc2c(Nc3cccc(Cl)c3)nc(NCCO)nc21: 92.9%
N#C/C(=C(/N)SC1C=CC=CC1)c1cccc(C(O)c2ccncc2)c1 (centres unmarked): 99.9%
NC(=O)c1ccc(-c2nc(-c3ccc4c(c3)OCCO4)c(-c3ccccn3)[nH]2)cc1: 91.3%
CCN(CC)CCCCN1c2ccccc2Oc2ccc(Cl)cc21: 92.6%
COc1cc2c(N3CCN(C(=O)Nc4ccc(OC(C)C)cc4)CC3)ncnc2cc1OCCCN1CCCCC1: 93.4%
CNc1cc2c(Nc3cccc(Br)c3)ncnc2cn1: 102%
Clc1ccc(Nc2nnc(Cc3ccncc3)c3ccccc23)cc1: 94%
C[C@@H](N)[C@H]1CC[C@H](C(=O)Nc2ccncc2)CC1: 95.8%
O=C1c2ccccc2-c2nc3nnnn3nc21: 101%
O=c1c(-c2ccc(F)cc2)c(-c2ccncc2)[nH]n1-c1ccc(Cl)cc1: 111%
Nc1nc(Nc2ccc(S(N)(=O)=O)cc2)nn1C(=S)Nc1c(F)cccc1F: 8.18%
c1cc(-c2cnn3cc(-c4ccc(OCCN5CCCCC5)cc4)cnc23)ccn1: 91.1%
CC(C)(C)c1nc2c3cc[nH]c(=O)c3c3cc(F)ccc3c2[nH]1: 86.9%
NC(=O)c1cccc(-c2cc(Nc3ccc(OC(F)(F)F)cc3)ncn2)c1: 94.5%
COc1cc2c(Nc3ccc(Br)cc3F)ncnc2cc1OCC1CCN(C)CC1: 99%
O=C(O)/C=C/c1cc(Br)c(Br)c(Br)c1Br: 87.2%

Series 3 — tested at: 1 µM; quantity: remaining binding
Compound: Cc1ccc(NC(=O)c2ccnc(C(F)(F)F)c2)cc1-c1cc(OCCO)nc(N2CCOCC2)c1
EGFR (Homo sapiens, UniProt P00533, del746-750); competitive binding panel; relative to: vehicle: 86%
SNRK (Homo sapiens, UniProt Q9NRH2); competitive binding panel; relative to: vehicle: 100%
CAMK1G (Homo sapiens, UniProt Q96NX5); competitive binding panel; relative to: vehicle: 100%
ULK3 (Homo sapiens, UniProt Q6PHR2); competitive binding panel; relative to: vehicle: 85%
KIT (Homo sapiens, UniProt P10721); competitive binding scan; autoinhibited form: 75%
GSK3A (Homo sapiens, UniProt P49840); competitive binding panel; relative to: vehicle: 100%
LIM domain kinase 2 (LIMK2, Homo sapiens, UniProt P53671); competitive binding panel; relative to: vehicle: 88%
PHKG1 (Homo sapiens, UniProt Q16816); competitive binding panel; relative to: vehicle: 100%
MAP3K3 (Homo sapiens, UniProt Q99759); competitive binding panel; relative to: vehicle: 100%
IRAK3 (Homo sapiens, UniProt Q9Y616); competitive binding panel; relative to: vehicle: 99%

Other studies, line by line
CN(C)C(=O)N1CC[C@H](N=C2Nc3cc(F)ccc3N(CC(F)F)c3ccc(Cl)cc32)C1
viability (sample J colorectal tumour organoid; 0.1 µM; relative to: DMSO): 105%

CC[C@H](CC(=O)O)n1c(=O)c2ncccc2n(Cc2cn(C)c3cc(C)cc(C)c23)c1=O
inhibition (HTR1E (Homo sapiens, UniProt P28566); ligand displacement; 10 µM): -9.73%

A few entries again (series 1):
Non-receptor tyrosine-protein kinase TYK2, JH2 pseudokinase domain (TYK2, Homo sapiens, UniProt P29597): 95%
MYLK4 (Homo sapiens, UniProt Q86YV6); enzyme activity: 19%
MAP4K5 (Homo sapiens, UniProt Q9Y4K4); enzyme activity: 27%
BMPR1A (Homo sapiens, UniProt P36894); enzyme activity: 6%
Tyrosine-protein kinase ABL1, phosphorylated (ABL1, Homo sapiens, UniProt P00519, T315I); enzyme activity: 46%
